Experimental data from different studies.
Parts stem from different laboratories: compare values within a part only.

Block 1
Target: RNA binding protein fox-1 homolog 2, RRM domain, GST-SBP tag (RBFOX2, Homo sapiens, UniProt O43251-10, residues 100-194)
Technique: RNA Bind-n-Seq
Molecule type: RNA
Sample: in vitro
Tested at: 365 nM
Setting: natural RNA segment, single round, ends assumed
Relative to: no-protein control
Direction: higher = stronger binding
All sequences stand within: GGGAGUUCUACAGUCCGACGAUC … UGGAAUUCUCGGGUGCCAA
`GCCAUGGCAUUUCAUGAUAUGUGAUUAGGAGCUCGUGUGCACCCUCAUAUCCAUUCCAUGAGAAGGUGAGGGAUACCUCCUUGGGGCUGUUUGUAUCAUGGACUGUCAUG` — result for “RBNS enrichment (R)”: 0.696.
`AAGGACAUGGCUCUAAAAUUUCCUGUUGAUUGGCAUGUGUAUCUCAUUUAAAGCAAAAUUAGGUAGAACAAACCAGUCAGUAAGAUUAGAAGUAUUACAGAGAAUCAUCC`: “RBNS enrichment (R)” 0.761.
For `ACAGAAGCAAGCAAAUAAAGUCAGGAAGAAAUAUAUAUAUGAGAUAAUAUAGAUUGUAUUGAAAUCUUUCUGCCUGCCAGCGAGGUUUUUUUUUUCUUUUCCCCUCUUGU`, “RBNS enrichment (R)” read 0.601.
For `UGCCUCCAUGUCUGUCACUUAUAAUUCAGGUUCUGCUGUUGGCUUCAGAACAUGAGCAGAAGAAUCGUUUUAUGCUAGUUAUUGCAUUCAUGGUUGAAACUCAACUUAGG`, “RBNS enrichment (R)” read 0.553.
`CAUUCUCUUUUAGCAACUGAAUUCCCAACGAGUUUUAUUAAGCUGGAUAUCGAAAUGAAGGAGCUGCCUUAAGCACUUUAGAAAAAGAAUUUUUUUACAAUUCAUUUUGA` — result for “RBNS enrichment (R)”: 0.654.
For `GUCAGUACCUUAUUGUUAAAGUGAGUCAGAUAAAUCUUCAAUUCCUGGCUAUUUGGGCAAUUGAAUCAUCAUGGACUGUAUAAUGCAAUCAGAUUAUUUUGUUUCUAGAC`, “RBNS enrichment (R)” read 0.574.

Block 2
Target: RING finger protein unkempt homolog, zinc fingers 1-6, GST-SBP tag (UNK, Homo sapiens, UniProt Q9C0B0, residues 30-357)
UniProt Q9C0B0, sequence (30-357, looked up): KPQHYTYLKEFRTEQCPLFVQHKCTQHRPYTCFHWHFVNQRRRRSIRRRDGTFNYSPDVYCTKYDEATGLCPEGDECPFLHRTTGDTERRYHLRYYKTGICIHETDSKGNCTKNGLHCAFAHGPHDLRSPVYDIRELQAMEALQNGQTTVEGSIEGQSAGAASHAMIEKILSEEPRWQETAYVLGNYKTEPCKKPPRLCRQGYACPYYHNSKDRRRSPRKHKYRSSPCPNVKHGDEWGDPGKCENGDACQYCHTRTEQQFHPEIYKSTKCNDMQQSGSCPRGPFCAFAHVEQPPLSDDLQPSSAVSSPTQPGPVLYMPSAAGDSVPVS
Technique: RNA Bind-n-Seq
Molecule type: RNA
Sample: in vitro
Tested at: not given
Setting: RNA with constant flanks, human and mouse sites, ends assumed
Relative to: input RNA pool
Direction: higher = stronger binding
With `GGGAGUUCUACAGUCCGACGAUCUCUUAUGAGAACAUGCGUUUUCUGAUAACUCACAACCCCACCAAUGCGACUCUCAACAAGUUCACAGAGGAACUUAAGAAGUACGGAGUGACAACUUUGGUUCGAGUUUGUGAUGCUACACAACAGAGGAUUGAGCAUCA` the bound/input enrichment was 0.103 ratio.
`GGGAGUUCUACAGUCCGACGAUCGAAAAUGCUUUUGAGCGACUGCUGGACAUUAUUACAGAGGAGGGGAACAGUGACGGAGGUAUAGUAGUGGAAGAUUGUUUGAUUUUACUUCAAAACUUGUUAAAAACCAACAAUUCCAAUCAACAGAGGAUUGAGCAUCA` gave a bound/input enrichment of 0.633 ratio.
The bound/input enrichment of `GGGAGUUCUACAGUCCGACGAUCUUUUAAACUUCUUUUUUUUAAUUUAAUUUUUUCCUUUCAGGGGUAAAGUUUGCUUUACCAAAUAGUGAUUGUAACAGAUUGAUCUGUUUUGGAUGUUGCUAUAGUGACAUGCAGUUCUAUCAACAGAGGAUUGAGCAUCA` is reported as 24.7 ratio.

Block 3
Target: Centromere-binding protein 1, full length, His-tagged (CBF1, Saccharomyces cerevisiae, UniProt P17106, residues 1-351)
UniProt P17106, sequence (whole entry, looked up): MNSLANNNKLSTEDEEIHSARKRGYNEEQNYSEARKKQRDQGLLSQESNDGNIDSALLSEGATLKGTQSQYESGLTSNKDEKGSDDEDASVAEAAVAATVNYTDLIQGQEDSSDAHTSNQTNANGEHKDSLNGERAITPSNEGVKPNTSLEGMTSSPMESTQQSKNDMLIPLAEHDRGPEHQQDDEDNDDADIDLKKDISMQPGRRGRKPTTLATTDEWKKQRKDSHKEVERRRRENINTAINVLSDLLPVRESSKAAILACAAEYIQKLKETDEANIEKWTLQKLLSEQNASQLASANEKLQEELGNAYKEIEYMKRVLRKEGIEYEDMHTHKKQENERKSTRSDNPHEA
Technique: competition protein-binding microarray
Molecule type: double-stranded DNA, one strand shown
Sample: in vitro
Tested at: 2 µM
Setting: whole 60-bp probe, lowest competitor level
Added: Pho4 competitor, 0.05 µM
Direction: higher = stronger binding
All sequences stand within: … GTCTTGATTCGCTTGACGCTGCTG
The fluorescence intensity of `GGCATACCTGTAAATCACCTGCTAACAAGGAATTCC` is reported as 268 a.u.
For `GTTTCACTTGCGTACTTCGTGCCAGGCTTGATGGCT`, the fluorescence intensity was 57.9 a.u.
The fluorescence intensity of `CGTCCTAGTGATTGTTAAGTGGGTGCCATGAGGAAG` is reported as 96.5 a.u.
`CATACCCAACCTTGTCACGTGACTTAAGATATTTGT` gave a fluorescence intensity of 28500 a.u.
`CGGGGTTAAGTTTTTCACGTGGTCTGCTTGCAGCAG` gave a fluorescence intensity of 1050 a.u.
For `CGTCCTAGTGATTTTCACGTGAGCTCCATGAGGAAG`, the fluorescence intensity was 1240 a.u.
With `GAGTAACATTACCATCACGCTAGTACTGCTAGATTA` the fluorescence intensity was 93.7 a.u.
`AAATTACTAAGTTGTCACGTTACTTACCCCGTATGA` has a fluorescence intensity of 1080 a.u.

Further values, each from its own experiment
`PhoQ, residues 284 288 289 292 302 303 AEGLLW` has a fold induction of 4.61 (PhoP, residues 12 14 15 18 19 SMASL (Escherichia coli, UniProt P23836); Sort-seq, refers to: YFP reporter; E. coli; PhoQ-PhoP variant library, added: 10 µM Mg2+; relative to: high Mg2+ state, higher = stronger signaling).

Excerpt of the above (block 3):
`CATACCCAACCTTGTCACGTGACTTAAGATATTTGT` gave a fluorescence intensity of 28500 a.u.
For `GTTTCACTTGCGTACTTCGTGCCAGGCTTGATGGCT`, the fluorescence intensity was 57.9 a.u.
